Results from different studies.
Lines come from different studies, so protocols differ.
B1: EIF3J/GST 103-258 (Homo sapiens); Alexa Fluor 546 label; sequence looked up; chain EEPKVLTPEEQLADKLRLKKLQEESDLELAKETFGVNNAVYGIDAMNPSSRDDFTEFGKLLKDKITQYEKSLYYASFLEVLVRDVCISLEIDDLKKITNSLTVLCSEKQKQEKQSKAKKKKKGVVPGGGLKATMKDDLADYGGYDGGYVQDYEDFM
B2: TEFM 51-360 (Homo sapiens, UniProt Q96QE5); sequence looked up; chain DENAKEPENALDKLFSSEQQASILHVLNTASTKELEAFRLLRGRRSINIVEHRENFGPFQNLESLMNVPLFKYKSTVQVCNSILCPKTGREKRKSPENRFLRKLLKPDIERERLKAVNSIISIVFGTRRIAWAHLDRKLTVLDWQQSDRWSLMRGIYSSSVYLEEISSIISKMPKADFYVLEKTGLSIQNSSLFPILLHFHIMEAMLYALLNKTFAQDGQHQVLSMNRNAVGKHFELMIGDSRTSGKELVKQFLFDSILKADPRVFFPSDKIVHYRQMFLSTELQRVEELYDSLLQAIAFYELAVFDSQP
B3: cox13 (Schizosaccharomyces pombe, UniProt O74471); sequence looked up; chain SNEAKVNWLEEVQAEEEHAKRSSEFWKKVTYYIGGPALILASANAYYIYCKHQEHAKHVEDTDPGYSFENLRFKKYPWGDGSKTLFWNDKVNHLKKDDE
B4: RRP42 1-265 (Saccharomyces cerevisiae, UniProt Q12277); chain MSLSVAEKSYLYDSLASTPSIRPDGRLPHQFRPIEIFTDFLPSSNGSSRIIASDGSECIVSIKSKVVDHHVENELLQVDVDIAGQRDDALVVETITSLLNKVLKSGSGVDSSKLQLTKKYSFKIFVDVLVISSHSHPVSLISFAIYSALNSTYLPKLISAFDDLEVEELPTFHDYDMVKLDINPPLVFILAVVGNNMLLDPAANESEVANNGLIISWSNGKITSPIRSVALNDSNVKSFKPHLLKQGLAMVEKYAPDVVRSLENL
B5: PAP2 D236A/D238A (Saccharomyces cerevisiae, UniProt P53632); sequence looked up; chain MGAKSVTASSSKKIKNRHNGKVKKSKKIKKVRKPQKSISLNDENEVEILPSRNEQETNKLPKDHVTADGILVLEHKSDDDEGFDVYDGHFDNPTDIPSTTEESKTPSLAVHGDEKDLANNDDFISLSASSEDEQAEQEEEREKQELEIKKEKQKEILNTDYPWILNHDHSKQKEISDWLTFEIKDFVAYISPSREEIEIRNQTISTIREAVKQLWPDADLHVFGSYSTDLYLPGSAIACVVTSELGGKESRNNLYSLASHLKKKNLATEVEVVAKARVPIIKFVEPHSGIHIDVSFERTNGIEAAKLIREWLDDTPGLRELVLIVKQFLHARRLNNVHTGGLGGFSIICLVFSFLHMHPRIITNEIDPKDNLGVLLIEFFELYGKNFGYDDVALGSSDGYPVYFPKSTWSAIQPIKNPFSLAIQDPGDESNNISRGSFNIRDIKKAFAGAFDLLTNRCFELHSATFKDRLGKSILGNVIKYRGKARDFKDERGLVLNKAIIENENYHKKRSRIIHDEDFAEDTVTSTATATTTDDDYEITNPPAKKAKIEEKPESEPAKRNSGETYITVSSEDDDEDGYNPYTL
B6: PSMG3/PSMG4 heterodimer (Homo sapiens); chain 1 MEDTPLVISKQKTEVVCGVPTQVVCTAFSSHILVVVTQFGKMGTLVSLEPSSVASDVSKPVLTTKVLLGQDEPLIHVFAKNLVAFVSQEAGNRAVLLAVAVKDKSMEGLKALREVIRVCQVW; chain 2 MEGLVVAAGGDVSLHNFSARLWEQLVHFHVMRLTDSLFLWVGATPHLRNLAVAMCSRYDSIPVSTSLLGDTSDTTSTGLAQRLARKTNKQVFVSYNLQNTDSNFALLVENRIKEEMEAFPEKF
B7: KAT7 474-611 (Homo sapiens, UniProt O95251); sequence looked up; chain CILTMPQYMRQGYGKMLIDFSYLLSKVEEKVGSPERPLSDLGLISYRSYWKEVLLRYLHNFQGKEISIKEISQETAVNPVDIVSTLQALQMLKYWKGKHLVLKRQDLIDEWIAKEAKRSNSNKTMDPSCLKWTPPKGT
B8: EFR3A 721-791 L731A (Homo sapiens, UniProt Q14156); chain SNTEEITFEAAKKAIDTSGMEEQEKEKRRLVIEKFQKAPFEEIAAQCESKANLLHDRLAQILELTIRPPPS
B9: NUP60 240-318 (Saccharomyces cerevisiae, UniProt P39705); sequence looked up; chain TYTANTSAQSIASAKSVRSGVSKSAPSKKISNTAAALVSLLDENDSKKNNAASELANPYSSYVSQIRKHKRVSPNAAPR
B10: HY5 (Arabidopsis thaliana, UniProt O24646); sequence looked up; chain MQEQATSSLAASSLPSSSERSSSSAPHLEIKEGIESDEEIRRVPEFGGEAVGKETSGRESGSATGQERTQATVGESQRKRGRTPAEKENKRLKRLLRNRVSAQQARERKKAYLSELENRVKDLENKNSELEERLSTLQNENQMLRHILKNTTGNKRGGGGGSNADASL
B11: PUM1 800-1186 (Homo sapiens, UniProt Q14671); chain SASSLFSPSSTLFSSSRLRYGMSDVMPSGRSRLLEDFRNNRYPNLQLREIAGHIMEFSQDQHGSRFIQLKLERATPAERQLVFNEILQAAYQLMVDVFGNYVIQKFFEFGSLEQKLALAERIRGHVLSLALQMYGCRVIQKALEFIPSDQQNEMVRELDGHVLKCVKDQNGNHVVQKCIECVQPQSLQFIIDAFKGQVFALSTHPYGCRVIQRILEHCLPDQTLPILEELHQHTEQLVQDQYGNYVIQHVLEHGRPEDKSKIVAEIRGNVLVLSQHKFASNVVEKCVTHASRTERAVLIDEVCTMNDGPHSALYTMMKDQYANYVVQKMIDVAEPGQRKIVMHKIRPHIATLRKYTYGKHILAKLEKYYMKNGVDLGPICGPPNGII
B12: PTK2 1-370 (Homo sapiens, UniProt Q05397); sequence looked up; chain MAAAYLDPNLNHTPNSSTKTHLGTGMERSPGAMERVLKVFHYFESNSEPTTWASIIRHGDATDVRGIIQKIVDSHKVKHVACYGFRLSHLRSEEVHWLHVDMGVSSVREKYELAHPPEEWKYELRIRYLPKGFLNQFTEDKPTLNFFYQQVKSDYMLEIADQVDQEIALKLGCLEIRRSYWEMRGNALEKKSNYEVLEKDVGLKRFFPKSLLDSVKAKTLRKLIQQTFRQFANLNREESILKFFEILSPVYRFDKECFKCALGSSWIISVELAIGPEEGISYLTDKGCNPTHLADFTQVQTIQYSNSEDKDRKGMLQLKIAGAPEPLTVTAPSLTIAENMADLIDGYCRLVNGTSQSFIIRPQKEGERAL
B13: lpxC 1-305 (Escherichia coli, UniProt P0A725); chain MIKQRTLKRIVQATGVGLHTGKKVTLTLRPAPANTGVIYRRTDLNPPVDFPADAKSVRDTMLCTCLVNEHDVRISTVEHLNAALAGLGIDNIVIEVNAPEIPIMDGSAAPFVYLLLDAGIDELNCAKKFVRIKETVRVEDGDKWAEFKPYNGFSLDFTIDFNHPAIDSSNQRYAMNFSADAFMRQISRARTFGFMRDIEYLQSRGLCLGGSFDCAIVVDDYRVLNEDGLRFEDEFVRHKMLDAIGDLFMCGHNIIGAFTAYKSGHALNNKLLQAVLAKQEAWEYVTFQDDAELPLAFKAPSAVLA
B14: POL31 (Saccharomyces cerevisiae, UniProt P46957); sequence looked up; chain MDALLTKFNEDRSLQDENLSQPRTRVRIVDDNLYNKSNPFQLCYKKRDYGSQYYHIYQYRLKTFRERVLKECDKRWDAGFTLNGQLVLKKDKVLDIQGNQPCWCVGSIYCEMKYKPNVLDEVINDTYGAPDLTKSYTDKEGGSDEIMLEDESGRVLLVGDFIRSTPFITGVVVGILGMEAEAGTFQVLDICYPTPLPQNPFPAPIATCPTRGKIALVSGLNLNNTSPDRLLRLEILREFLMGRINNKIDDISLIGRLLICGNSVDFDIKSVNKDELMISLTEFSKFLHNILPSISVDIMPGTNDPSDKSLPQQPFHKSLFDKSLESYFNGSNKEILNLVTNPYEFSYNGVDVLAVSGKNINDICKYVIPSNDNGESENKVEEGESNDFKDDIEHRLDLMECTMKWQNIAPTAPDTLWCYPYTDKDPFVLDKWPHVYIVANQPYFGTRVVEIGGKNIKIISVPEFSSTGMIILLDLETLEAETVKIDI
B15: EIF5B 1076-1220 (Homo sapiens, UniProt O60841); sequence looked up; chain YKKQKQEEFKHIAVFPCKIKILPQYIFNSRDPIVMGVTVEAGQVKQGTPMCVPSKNFVDIGIVTSIEINHKQVDVAKKGQEVCVKIEPIPGESPKMFGRHFEATDILVSKISRQSIDALKDWFRDEMQKSDWQLIVELKKVFEII
B16: FUS 164-526 (Homo sapiens, UniProt P35637); sequence looked up; chain SSGGGGGGGGGGNYGQDQSSMSSGGGSGGGYGNQDQSGGGGSGGYGQQDRGGRGRGGSGGGGGGGGGGYNRSSGGYEPRGRGGGRGGRGGMGGSDRGGFNKFGGPRDQGSRHDSEQDNSDNNTIFVQGLGENVTIESVADYFKQIGIIKTNKKTGQPMINLYTDRETGKLKGEATVSFDDPPSAKAAIDWFDGKEFSGNPIKVSFATRRADFNRGGGNGRGGRGRGGPMGRGGYGGGGSGGGGRGGFPSGGGGGGGQQRAGDWKCPNPTCENMNFSWRNECNQCKAPKPDGPGGGPGGSHMGGNYGDDRRGGRGGYDRGGYRGRGGDRGGFRGGRGGGDRGGFGPGKMDSRGEHRQDRRERPY
Sequence of UniProt Q05471 (whole entry, looked up): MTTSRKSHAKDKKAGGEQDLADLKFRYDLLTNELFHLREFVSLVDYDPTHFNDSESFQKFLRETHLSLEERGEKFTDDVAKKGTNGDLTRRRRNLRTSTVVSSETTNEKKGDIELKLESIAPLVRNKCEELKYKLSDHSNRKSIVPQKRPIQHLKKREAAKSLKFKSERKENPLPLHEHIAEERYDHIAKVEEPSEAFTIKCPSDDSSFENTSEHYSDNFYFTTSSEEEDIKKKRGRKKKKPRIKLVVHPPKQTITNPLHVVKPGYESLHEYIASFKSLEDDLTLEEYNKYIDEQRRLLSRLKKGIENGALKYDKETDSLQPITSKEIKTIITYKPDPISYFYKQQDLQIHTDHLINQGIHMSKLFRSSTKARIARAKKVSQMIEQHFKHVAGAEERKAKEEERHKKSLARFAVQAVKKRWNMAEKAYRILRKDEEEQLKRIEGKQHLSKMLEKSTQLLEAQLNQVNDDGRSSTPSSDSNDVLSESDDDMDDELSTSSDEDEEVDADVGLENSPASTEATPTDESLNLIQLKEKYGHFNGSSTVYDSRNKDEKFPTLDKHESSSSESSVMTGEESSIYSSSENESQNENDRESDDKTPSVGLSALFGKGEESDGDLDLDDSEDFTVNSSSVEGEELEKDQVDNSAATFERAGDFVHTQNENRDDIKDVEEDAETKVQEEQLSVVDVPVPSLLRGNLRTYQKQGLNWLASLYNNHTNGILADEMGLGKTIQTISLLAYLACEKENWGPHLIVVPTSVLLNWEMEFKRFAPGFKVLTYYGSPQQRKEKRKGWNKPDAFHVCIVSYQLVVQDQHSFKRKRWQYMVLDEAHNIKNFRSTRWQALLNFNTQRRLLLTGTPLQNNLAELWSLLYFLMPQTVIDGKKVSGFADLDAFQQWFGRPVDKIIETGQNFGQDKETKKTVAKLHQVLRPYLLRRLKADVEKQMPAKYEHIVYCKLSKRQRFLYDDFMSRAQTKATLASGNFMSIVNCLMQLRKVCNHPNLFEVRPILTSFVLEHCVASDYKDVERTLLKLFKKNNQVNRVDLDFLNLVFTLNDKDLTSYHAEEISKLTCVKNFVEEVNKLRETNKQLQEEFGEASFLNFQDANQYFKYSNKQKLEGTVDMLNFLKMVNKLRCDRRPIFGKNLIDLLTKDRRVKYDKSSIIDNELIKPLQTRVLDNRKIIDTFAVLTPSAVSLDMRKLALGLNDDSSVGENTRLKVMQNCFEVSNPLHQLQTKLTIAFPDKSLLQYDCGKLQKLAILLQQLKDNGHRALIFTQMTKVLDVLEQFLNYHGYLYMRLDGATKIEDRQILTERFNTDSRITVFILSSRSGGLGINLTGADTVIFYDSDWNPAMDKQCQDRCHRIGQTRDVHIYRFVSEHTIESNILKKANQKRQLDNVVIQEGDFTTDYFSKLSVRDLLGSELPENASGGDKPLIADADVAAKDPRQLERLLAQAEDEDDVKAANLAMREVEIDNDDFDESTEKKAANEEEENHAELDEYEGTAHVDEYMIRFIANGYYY
Sequence of UniProt Q9H7Z6 (whole entry, looked up): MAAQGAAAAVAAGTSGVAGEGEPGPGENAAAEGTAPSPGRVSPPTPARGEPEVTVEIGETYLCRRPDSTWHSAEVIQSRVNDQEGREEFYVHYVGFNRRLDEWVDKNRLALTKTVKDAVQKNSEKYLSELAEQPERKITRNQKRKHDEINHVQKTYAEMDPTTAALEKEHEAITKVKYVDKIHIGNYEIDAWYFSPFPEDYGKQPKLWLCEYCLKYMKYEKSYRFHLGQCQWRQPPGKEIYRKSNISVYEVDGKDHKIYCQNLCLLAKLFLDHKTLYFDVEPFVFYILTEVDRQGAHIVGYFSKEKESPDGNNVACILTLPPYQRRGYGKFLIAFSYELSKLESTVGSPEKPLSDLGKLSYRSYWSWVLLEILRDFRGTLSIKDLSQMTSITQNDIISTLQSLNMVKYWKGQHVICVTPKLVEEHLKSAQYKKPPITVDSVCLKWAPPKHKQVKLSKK
Sequence of UniProt Q5SXM2 (whole entry, looked up): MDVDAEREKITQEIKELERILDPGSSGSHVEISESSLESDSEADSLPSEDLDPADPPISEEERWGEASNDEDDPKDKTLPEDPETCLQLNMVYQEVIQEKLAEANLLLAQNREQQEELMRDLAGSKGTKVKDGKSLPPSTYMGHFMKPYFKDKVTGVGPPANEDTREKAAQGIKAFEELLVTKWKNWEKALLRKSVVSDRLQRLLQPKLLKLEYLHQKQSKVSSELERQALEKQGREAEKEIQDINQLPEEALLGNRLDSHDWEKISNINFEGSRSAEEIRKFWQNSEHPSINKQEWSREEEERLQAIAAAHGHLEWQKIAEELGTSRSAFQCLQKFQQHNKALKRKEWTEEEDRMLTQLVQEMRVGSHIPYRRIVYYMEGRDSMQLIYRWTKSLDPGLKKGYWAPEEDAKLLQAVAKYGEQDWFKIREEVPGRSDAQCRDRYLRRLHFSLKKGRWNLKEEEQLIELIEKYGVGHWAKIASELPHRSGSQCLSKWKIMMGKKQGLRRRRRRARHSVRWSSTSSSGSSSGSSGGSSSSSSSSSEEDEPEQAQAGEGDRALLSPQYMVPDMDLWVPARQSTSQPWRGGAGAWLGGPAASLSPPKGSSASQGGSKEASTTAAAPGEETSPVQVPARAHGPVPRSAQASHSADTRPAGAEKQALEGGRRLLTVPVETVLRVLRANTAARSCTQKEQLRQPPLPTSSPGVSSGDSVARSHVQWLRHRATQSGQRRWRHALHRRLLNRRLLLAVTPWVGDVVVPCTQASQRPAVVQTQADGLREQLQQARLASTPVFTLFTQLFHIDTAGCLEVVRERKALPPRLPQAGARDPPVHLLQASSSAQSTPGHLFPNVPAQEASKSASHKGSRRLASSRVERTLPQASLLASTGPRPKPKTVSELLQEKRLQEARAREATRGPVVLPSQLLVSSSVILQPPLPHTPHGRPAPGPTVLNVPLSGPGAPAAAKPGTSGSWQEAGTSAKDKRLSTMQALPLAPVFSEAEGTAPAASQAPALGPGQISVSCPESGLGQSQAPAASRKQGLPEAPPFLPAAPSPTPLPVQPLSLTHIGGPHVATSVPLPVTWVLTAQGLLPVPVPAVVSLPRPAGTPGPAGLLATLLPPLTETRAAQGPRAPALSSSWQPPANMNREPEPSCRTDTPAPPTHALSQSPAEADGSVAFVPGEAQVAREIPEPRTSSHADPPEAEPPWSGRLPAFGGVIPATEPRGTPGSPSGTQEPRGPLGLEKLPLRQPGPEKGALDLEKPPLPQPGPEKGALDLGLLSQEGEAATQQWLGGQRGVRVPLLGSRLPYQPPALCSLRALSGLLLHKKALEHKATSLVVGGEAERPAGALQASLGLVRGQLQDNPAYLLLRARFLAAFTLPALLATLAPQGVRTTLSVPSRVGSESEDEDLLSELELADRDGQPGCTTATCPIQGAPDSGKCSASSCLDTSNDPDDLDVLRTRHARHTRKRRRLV
Sequence of UniProt Q9LET0 (whole entry, unmodified, looked up): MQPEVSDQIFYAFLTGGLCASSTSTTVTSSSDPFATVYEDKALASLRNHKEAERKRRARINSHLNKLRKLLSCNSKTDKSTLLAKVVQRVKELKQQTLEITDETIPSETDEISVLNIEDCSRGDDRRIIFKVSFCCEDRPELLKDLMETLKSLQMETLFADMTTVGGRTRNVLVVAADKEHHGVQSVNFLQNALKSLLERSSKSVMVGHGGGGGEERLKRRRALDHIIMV
Sequence of UniProt P0ABV2 (whole entry, looked up): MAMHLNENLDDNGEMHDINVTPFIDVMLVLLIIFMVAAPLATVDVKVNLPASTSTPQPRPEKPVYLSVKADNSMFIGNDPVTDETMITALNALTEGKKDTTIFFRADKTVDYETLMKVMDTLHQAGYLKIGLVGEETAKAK
Sequence of UniProt P38792 (whole entry, looked up): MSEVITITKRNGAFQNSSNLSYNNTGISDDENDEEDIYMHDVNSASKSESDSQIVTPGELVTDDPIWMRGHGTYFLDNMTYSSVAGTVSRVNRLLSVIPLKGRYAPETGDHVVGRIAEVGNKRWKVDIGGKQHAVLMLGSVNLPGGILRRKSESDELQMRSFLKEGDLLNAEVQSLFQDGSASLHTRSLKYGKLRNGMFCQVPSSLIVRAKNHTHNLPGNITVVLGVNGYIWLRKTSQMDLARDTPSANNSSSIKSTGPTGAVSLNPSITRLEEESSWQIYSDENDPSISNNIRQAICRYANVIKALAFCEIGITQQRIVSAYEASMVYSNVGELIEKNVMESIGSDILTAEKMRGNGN
Sequence of UniProt P25786 (whole entry, looked up): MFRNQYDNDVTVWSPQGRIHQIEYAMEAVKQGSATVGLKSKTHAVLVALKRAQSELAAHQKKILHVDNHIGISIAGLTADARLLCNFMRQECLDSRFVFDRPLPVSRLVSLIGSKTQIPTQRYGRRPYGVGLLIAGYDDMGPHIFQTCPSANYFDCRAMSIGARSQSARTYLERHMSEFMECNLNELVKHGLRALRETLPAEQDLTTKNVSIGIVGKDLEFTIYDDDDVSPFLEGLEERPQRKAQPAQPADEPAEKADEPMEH
Sequence of UniProt O95210 (whole entry, looked up): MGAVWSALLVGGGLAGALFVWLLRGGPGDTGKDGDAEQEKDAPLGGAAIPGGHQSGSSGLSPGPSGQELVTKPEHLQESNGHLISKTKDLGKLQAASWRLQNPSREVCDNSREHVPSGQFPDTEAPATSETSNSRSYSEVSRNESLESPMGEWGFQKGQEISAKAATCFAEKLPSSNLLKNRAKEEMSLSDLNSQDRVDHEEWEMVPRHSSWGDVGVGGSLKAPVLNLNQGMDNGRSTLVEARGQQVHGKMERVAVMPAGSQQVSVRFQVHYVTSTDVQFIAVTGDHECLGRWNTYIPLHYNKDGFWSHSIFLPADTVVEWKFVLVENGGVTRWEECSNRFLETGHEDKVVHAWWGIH
Sequence of UniProt Q9UBQ5 (whole entry, looked up): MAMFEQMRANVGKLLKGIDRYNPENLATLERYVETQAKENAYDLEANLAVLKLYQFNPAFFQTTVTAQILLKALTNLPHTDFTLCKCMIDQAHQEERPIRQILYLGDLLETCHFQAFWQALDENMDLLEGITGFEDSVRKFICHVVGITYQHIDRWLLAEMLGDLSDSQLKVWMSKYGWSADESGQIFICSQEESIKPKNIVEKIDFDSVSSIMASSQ

Substance | target or system | test | system | setting | scale | measurement | result
B1 (EIF3J/GST 103-258) | EIF3K (Homo sapiens, UniProt Q9UBQ5) | EMSA |  |  |  | binding | binds
B2 (TEFM 51-360) | POLRMT 120-1230 E555A (Homo sapiens, UniProt O00411) | cryo-EM |  |  |  | binding | binds
HLCS (Homo sapiens, UniProt P50747) | Histone H3.2 (Homo sapiens, UniProt Q71DI3) | limited proteolysis |  |  |  | binding | binds
KKAQPISVTMVTPADLEPPQAKK (TonB residues 42-60 (Escherichia coli)) | exbD 43-141 (Escherichia coli, UniProt P0ABV2) | NMR titration | peptide |  |  | binding | binds
colistin | Morganella morganii | broth microdilution | clinical isolate RKI-No 599/16 |  |  | MIC | > 64 µg/mL
B3 (cox13) | rcf2 (Schizosaccharomyces pombe, UniProt Q9P3B2) | cryo-EM |  |  |  | binding | binds
RIE1 (Arabidopsis thaliana, UniProt Q8GUU2) | ACS7 (Arabidopsis thaliana, UniProt Q9STR4) | pull-down |  | 2 h, 4 °C |  | binding | binds
Peginesatide | UT7/EPO | RT-qPCR, refers to: PHLDA1 |  | concentration not given, 90 min, normalized to HPRT1 | baseline: vehicle | mRNA level | 3.6 fold
B4 (RRP42 1-265) | RRP4 (Saccharomyces cerevisiae, UniProt P38792) | cryo-EM |  |  |  | binding | binds
POLR3E (Homo sapiens, UniProt Q9NVU0) | SNAPC4 (Homo sapiens, UniProt Q5SXM2) | cryo-EM |  |  |  | binding | binds
B5 (PAP2 D236A/D238A) | MTR4 (Saccharomyces cerevisiae, UniProt P47047) | HDX-MS |  |  |  | binding | binds
RVB1 (Saccharomyces cerevisiae, UniProt Q03940) | SWR1 (Saccharomyces cerevisiae, UniProt Q05471) | cryo-EM |  |  |  | binding | binds
B6 (PSMG3/PSMG4 heterodimer) | PSMA1 (Homo sapiens, UniProt P25786) | cryo-EM |  |  |  | binding | binds
B7 (KAT7 474-611) | KAT8 (Homo sapiens, UniProt Q9H7Z6) | pull-down |  |  |  | binding | binds
B8 (EFR3A 721-791 L731A) | TTC7B/FAM126A FAM126A 1-308 (Homo sapiens) | BLI |  |  |  | binding | binds
B9 (NUP60 240-318) | NUP85/SEH1 Nup85 1-564 (Saccharomyces cerevisiae) | pull-down |  |  |  | binding | binds
B10 (HY5) | bHLH107 S62D/S72D (Arabidopsis, UniProt Q9LET0) | pull-down |  |  |  | binding | binds
B11 (PUM1 800-1186) | CNOT1/CNOT2/CNOT3 NOT module 1833-2361 | pull-down |  |  |  | binding | binds
HEEWEMVPRHS (STBD1 200-210 (Homo sapiens, UniProt O95210)) | GABARAP (Homo sapiens, UniProt O95166) | SEC |  |  |  | binding | binds
B12 (PTK2 1-370) | PRKCQ (Homo sapiens, UniProt Q04759) | pull-down |  |  |  | binding | binds
B13 (lpxC 1-305) | lapB 21-389 G121A (Escherichia coli, UniProt P0AB58) | pull-down |  |  |  | binding | binds
B14 (POL31) | POL3 (Saccharomyces cerevisiae, UniProt P15436) | mass photometry |  |  |  | binding | binds
B15 (EIF5B 1076-1220) | EIF5 196-431 (Homo sapiens, UniProt P55010) | NMR titration |  |  |  | binding | binds
B16 (FUS 164-526) | NUP62 (Homo sapiens, UniProt P37198) | co-IP |  |  |  | binding | binds

A few entries again:
Substance | target or system | test | system | setting | scale | measurement | result
Peginesatide | UT7/EPO | RT-qPCR, refers to: PHLDA1 |  | concentration not given, 90 min, normalized to HPRT1 | baseline: vehicle | mRNA level | 3.6 fold
